# Assay results gathered from unrelated publications.
# Every numbered part comes from another study and shows a few of its results, in no order.
# UniProt P35626, sequence (whole entry, looked up): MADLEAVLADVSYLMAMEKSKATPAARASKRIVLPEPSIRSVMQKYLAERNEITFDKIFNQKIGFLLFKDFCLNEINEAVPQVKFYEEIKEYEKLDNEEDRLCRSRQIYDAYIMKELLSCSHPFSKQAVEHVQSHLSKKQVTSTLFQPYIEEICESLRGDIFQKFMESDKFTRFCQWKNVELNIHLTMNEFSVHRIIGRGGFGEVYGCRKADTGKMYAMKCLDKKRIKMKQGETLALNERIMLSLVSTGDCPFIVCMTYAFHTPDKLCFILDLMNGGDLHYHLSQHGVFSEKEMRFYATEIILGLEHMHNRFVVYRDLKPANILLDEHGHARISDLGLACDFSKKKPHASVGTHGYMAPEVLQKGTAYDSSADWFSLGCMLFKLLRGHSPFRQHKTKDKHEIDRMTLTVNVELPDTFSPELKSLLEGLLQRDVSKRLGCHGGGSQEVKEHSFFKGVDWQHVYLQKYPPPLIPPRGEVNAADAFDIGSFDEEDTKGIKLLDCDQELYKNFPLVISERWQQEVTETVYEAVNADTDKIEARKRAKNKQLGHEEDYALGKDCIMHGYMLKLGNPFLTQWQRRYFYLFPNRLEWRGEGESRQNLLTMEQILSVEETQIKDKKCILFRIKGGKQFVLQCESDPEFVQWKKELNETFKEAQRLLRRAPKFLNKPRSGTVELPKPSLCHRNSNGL
# UniProt Q08345, sequence (whole entry, looked up): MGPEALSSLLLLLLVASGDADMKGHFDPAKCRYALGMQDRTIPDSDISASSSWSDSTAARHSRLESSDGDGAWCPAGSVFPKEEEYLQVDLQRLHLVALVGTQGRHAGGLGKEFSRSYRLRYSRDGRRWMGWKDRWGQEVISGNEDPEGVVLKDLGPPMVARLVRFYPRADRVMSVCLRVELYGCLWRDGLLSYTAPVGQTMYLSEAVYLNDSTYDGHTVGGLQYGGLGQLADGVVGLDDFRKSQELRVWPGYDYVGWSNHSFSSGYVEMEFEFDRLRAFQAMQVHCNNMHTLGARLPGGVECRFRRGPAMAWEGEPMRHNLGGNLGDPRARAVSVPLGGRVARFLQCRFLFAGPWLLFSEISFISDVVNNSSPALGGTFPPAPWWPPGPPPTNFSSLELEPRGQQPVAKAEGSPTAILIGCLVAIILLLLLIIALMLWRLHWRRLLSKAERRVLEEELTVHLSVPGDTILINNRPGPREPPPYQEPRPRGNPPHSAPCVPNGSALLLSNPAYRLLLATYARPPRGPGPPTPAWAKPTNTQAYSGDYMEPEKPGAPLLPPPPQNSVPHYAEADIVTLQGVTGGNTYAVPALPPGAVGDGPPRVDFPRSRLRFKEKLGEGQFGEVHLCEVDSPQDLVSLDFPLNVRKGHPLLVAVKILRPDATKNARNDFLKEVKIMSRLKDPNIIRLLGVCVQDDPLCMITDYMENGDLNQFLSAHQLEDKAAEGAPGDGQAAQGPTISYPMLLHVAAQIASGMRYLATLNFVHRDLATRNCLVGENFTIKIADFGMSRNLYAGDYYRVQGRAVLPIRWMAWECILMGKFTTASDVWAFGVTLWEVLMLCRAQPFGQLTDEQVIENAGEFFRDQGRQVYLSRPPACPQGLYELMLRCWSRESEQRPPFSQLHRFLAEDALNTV
# UniProt P51957, sequence (whole entry, looked up): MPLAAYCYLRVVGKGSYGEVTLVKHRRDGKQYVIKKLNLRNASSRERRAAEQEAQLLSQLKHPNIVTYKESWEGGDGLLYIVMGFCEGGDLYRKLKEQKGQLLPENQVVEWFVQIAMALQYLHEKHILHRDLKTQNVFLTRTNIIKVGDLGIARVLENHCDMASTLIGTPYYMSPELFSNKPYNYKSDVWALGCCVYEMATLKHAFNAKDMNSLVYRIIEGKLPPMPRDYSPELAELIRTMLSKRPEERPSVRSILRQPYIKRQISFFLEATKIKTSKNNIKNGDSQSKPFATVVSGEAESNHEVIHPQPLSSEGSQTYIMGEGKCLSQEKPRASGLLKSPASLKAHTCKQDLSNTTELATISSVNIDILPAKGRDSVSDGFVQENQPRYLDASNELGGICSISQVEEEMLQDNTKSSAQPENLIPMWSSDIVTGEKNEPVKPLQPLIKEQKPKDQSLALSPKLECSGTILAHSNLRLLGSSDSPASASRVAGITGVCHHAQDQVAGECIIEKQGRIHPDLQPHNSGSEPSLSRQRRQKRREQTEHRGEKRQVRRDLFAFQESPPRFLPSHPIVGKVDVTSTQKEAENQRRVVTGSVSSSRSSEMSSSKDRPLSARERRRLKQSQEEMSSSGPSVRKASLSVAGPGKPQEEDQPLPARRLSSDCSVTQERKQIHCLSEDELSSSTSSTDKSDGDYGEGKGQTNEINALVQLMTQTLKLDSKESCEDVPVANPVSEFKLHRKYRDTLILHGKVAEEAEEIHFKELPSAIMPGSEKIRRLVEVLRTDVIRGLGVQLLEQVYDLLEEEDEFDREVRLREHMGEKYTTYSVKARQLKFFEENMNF
# UniProt P31152, sequence (whole entry, looked up): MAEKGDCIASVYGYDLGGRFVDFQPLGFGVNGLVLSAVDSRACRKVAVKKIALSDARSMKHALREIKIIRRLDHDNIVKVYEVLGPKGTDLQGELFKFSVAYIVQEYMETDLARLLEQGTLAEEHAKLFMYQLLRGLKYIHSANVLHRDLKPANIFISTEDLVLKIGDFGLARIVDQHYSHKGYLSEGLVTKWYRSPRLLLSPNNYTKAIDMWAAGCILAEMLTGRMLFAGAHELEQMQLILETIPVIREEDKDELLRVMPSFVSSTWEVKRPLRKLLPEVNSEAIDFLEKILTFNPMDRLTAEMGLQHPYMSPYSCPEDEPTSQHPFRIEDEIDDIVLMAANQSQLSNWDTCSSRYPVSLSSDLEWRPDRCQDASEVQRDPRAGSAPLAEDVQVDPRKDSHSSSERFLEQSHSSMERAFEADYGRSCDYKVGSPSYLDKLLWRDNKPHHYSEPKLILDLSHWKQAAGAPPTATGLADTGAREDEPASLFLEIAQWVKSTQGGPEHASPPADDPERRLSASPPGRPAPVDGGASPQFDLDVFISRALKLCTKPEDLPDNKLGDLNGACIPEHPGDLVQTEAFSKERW

# Sample 1 — observed: enzyme activity; action: inhibitor; concentration: 0.5 µM; reference: control
# Target: Ephrin type-B receptor 2 (EPHB2, Homo sapiens, UniProt P29323)
# UniProt P29323, sequence (whole entry, looked up): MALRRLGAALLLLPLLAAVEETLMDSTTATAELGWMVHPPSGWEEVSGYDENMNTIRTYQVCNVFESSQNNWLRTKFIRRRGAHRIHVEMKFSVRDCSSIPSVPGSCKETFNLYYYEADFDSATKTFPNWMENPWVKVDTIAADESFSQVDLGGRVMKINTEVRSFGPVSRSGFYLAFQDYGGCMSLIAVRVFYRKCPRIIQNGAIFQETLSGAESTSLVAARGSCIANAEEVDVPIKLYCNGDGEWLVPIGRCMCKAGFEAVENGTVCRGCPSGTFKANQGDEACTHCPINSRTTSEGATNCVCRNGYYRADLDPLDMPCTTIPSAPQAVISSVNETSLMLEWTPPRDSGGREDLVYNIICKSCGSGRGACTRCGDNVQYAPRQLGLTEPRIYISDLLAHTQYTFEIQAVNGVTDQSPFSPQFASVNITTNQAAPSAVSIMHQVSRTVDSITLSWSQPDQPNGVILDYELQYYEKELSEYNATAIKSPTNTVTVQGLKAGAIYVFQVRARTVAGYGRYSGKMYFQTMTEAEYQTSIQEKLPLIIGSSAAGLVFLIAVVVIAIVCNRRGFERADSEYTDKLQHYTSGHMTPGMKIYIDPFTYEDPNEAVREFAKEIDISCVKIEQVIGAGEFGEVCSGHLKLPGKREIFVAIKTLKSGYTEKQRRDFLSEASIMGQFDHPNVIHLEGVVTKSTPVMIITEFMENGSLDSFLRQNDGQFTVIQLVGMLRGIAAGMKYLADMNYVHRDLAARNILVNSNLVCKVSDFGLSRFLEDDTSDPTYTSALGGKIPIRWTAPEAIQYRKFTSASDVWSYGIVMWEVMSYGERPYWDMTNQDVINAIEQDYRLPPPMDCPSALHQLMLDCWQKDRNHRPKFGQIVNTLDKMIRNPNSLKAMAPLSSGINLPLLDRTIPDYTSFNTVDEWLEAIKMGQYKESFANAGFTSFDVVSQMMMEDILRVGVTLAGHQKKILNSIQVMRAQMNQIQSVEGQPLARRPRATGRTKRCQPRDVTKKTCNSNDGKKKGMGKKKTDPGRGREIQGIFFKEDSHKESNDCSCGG
SMILES,remaining activity [%]
O=C1NC(=O)C(c2c[nH]c3ccccc23)=C1c1c[nH]c2ccccc12,96.9
CCc1[nH]c(-c2ccc(OC)cc2)nc1-c1ccncc1,111
Cc1cc(Nc2nc(-c3ccccc3)nc3ccccc23)n[nH]1,76.7
CC[n+]1c(/C=C/N(C)c2ccccc2)n(-c2ccccc2)c2ccc(-c3nc4ccccc4s3)cc21,99.1
CCCC(=O)Oc1ccc2[nH]c(C(=O)c3cc4ccccc4[nH]3)cc2c1,98.4
CSc1nc(-c2ccnc(N[C@@H](C)c3ccccc3)c2)c(-c2ccc(F)cc2)[nH]1 (racemic),85.4
Cc1ccc(NC2=CC(=O)c3sc(C)nc3C2=O)cc1,100
Fc1ccc(-c2nc3n(c2-c2ccncc2)CCS3)cc1,99.3
CC(=O)c1ccc(N2CCOCC2)cc1O,82.5
NC(=O)c1ccc(N(C(N)=O)c2c(F)cccc2F)nc1-c1ccc(F)cc1F,107
CC(C)(C)n1nc(Cc2cccc3ccccc23)c2c(N)ncnc21,44.6
Nc1ncnc2c1cnn2-c1ccccc1,96.2
Nc1nccc(-c2c(-c3ccc(F)cc3)ncn2C2CCNCC2)n1,103
Oc1ccc(Nc2nc(-c3ccc(Cl)cc3)cs2)cc1,101
Nc1nc(Nc2ccc(S(N)(=O)=O)cc2)nn1C(=O)c1c(F)cccc1F,96.1
COc1ccc(S(=O)(=O)N(CCO)c2ccccc2CN(C)CC=Cc2ccc(Cl)cc2)cc1,97.7
CC#CC(=O)Nc1cc2c(Nc3ccc(F)c(Cl)c3)ncnc2cn1,80.9
O=S(=O)(NCCNC/C=C/c1ccc(Br)cc1)c1cccc2cnccc12,81.7
COc1cc(Nc2c(C#N)cnc3cc(OCCCN4CCN(C)CC4)c(OC)cc23)c(Cl)cc1Cl,17.4
N#CC(=C(N)Sc1ccc(N)cc1)c1ccccc1C(F)(F)F,101
O=C1Cc2c([nH]c3ccc([N+](=O)[O-])cc23)-c2ccccc2N1,101

# Sample 2 — cell line: A-375; concentration: 100 µM; time: 36 h
Structure (SMILES),viability
Nc1ncnc2c1ncn2[C@@H]1O[C@H](COP(=O)(O)O)[C@@H](O)[C@H]1O,113%
NC1C(O)O[C@H](CO)C(O[C@@H]2O[C@H](CO)C(O[C@@H]3O[C@H](CO)[C@@H](O)[C@H](O)[C@H]3N)[C@H](O)C2N)C1O (some centres unmarked),122%
CC(C)OC(=O)C(C)(C)Oc1ccc(C(=O)c2ccc(Cl)cc2)cc1,75.2%
CCOC(=O)[C@H](CCc1ccccc1)N[C@@H](C)C(=O)N(CC(=O)O)C1Cc2ccccc2C1,94.7%
CCCc1nc(C(C)(C)O)c(C(=O)OCc2oc(=O)oc2C)n1Cc1ccc(-c2ccccc2-c2nnn[nH]2)cc1,96.5%
CCCNC(=O)NS(=O)(=O)c1ccc(Cl)cc1,96.5%
CC(=O)O[C@]1(C(C)=O)CC[C@H]2[C@@H]3C=C(C)C4=CC(=O)CC[C@]4(C)[C@H]3CC[C@@]21C,42.3%
Cn1cnc([N+](=O)[O-])c1Sc1ncnc2nc[nH]c12,60.2%
CC(C)(C)NC(=O)[C@H]1CC[C@H]2[C@@H]3CC[C@H]4NC(=O)C=C[C@]4(C)[C@H]3CC[C@]12C,49%
CC(C)(CO)[C@@H](O)C(=O)NCCCO,102%

# Sample 3 — technique: competition with immobilised ligand; concentration: 1 µM
# Compound: O=C(N1CCS(=O)(=O)CC1)N1C[C@H](c2ccc(OC(F)(F)F)cc2)C[C@H](c2nc(C3CC3)no2)C1
target,assay,remaining binding
"ALK (Homo sapiens, UniProt Q9UM73, C1156Y)",cell-free assay,79%
"Tyrosine-protein kinase ABL1, phosphorylated (ABL1, Homo sapiens, UniProt P00519, E255K)",binding,100%
"PRKD3 (Homo sapiens, UniProt O94806)",cell-free assay,100%
"KIT (Homo sapiens, UniProt P10721, D816H)",cell-free assay,71%
"FLT1 (Homo sapiens, UniProt P17948)",cell-free assay,100%
"NEK1 (Homo sapiens, UniProt Q96PY6)",cell-free assay,100%
"MERTK (Homo sapiens, UniProt Q12866)",cell-free assay,100%
"PKN1 (Homo sapiens, UniProt Q16512)",cell-free assay,100%
"NEK4 (Homo sapiens, UniProt P51957)",cell-free assay,100%
"MAPK6 (Homo sapiens, UniProt Q16659)",cell-free assay,100%
"MAPK4 (Homo sapiens, UniProt P31152)",cell-free assay,100%
"PIK3CA (Homo sapiens, UniProt P42336, E542K)",cell-free assay,88%
"EPHB3 (Homo sapiens, UniProt P54753)",cell-free assay,100%
"GRK3 (Homo sapiens, UniProt P35626)",cell-free assay,100%
"DDR1 (Homo sapiens, UniProt Q08345)",cell-free assay,100%

# Sample 4 — SMILES: C=CCc1ccc(O)c(-c2cc(CC=C)ccc2O)c1; observed: chloride current; technique: whole-cell voltage clamp
# ANO1 del476-501/R541K: Anoctamin-1 (ANO1, Homo sapiens, UniProt Q5XXA6, del476-501/R541K)
# UniProt Q5XXA6, sequence (whole entry, unmodified, looked up): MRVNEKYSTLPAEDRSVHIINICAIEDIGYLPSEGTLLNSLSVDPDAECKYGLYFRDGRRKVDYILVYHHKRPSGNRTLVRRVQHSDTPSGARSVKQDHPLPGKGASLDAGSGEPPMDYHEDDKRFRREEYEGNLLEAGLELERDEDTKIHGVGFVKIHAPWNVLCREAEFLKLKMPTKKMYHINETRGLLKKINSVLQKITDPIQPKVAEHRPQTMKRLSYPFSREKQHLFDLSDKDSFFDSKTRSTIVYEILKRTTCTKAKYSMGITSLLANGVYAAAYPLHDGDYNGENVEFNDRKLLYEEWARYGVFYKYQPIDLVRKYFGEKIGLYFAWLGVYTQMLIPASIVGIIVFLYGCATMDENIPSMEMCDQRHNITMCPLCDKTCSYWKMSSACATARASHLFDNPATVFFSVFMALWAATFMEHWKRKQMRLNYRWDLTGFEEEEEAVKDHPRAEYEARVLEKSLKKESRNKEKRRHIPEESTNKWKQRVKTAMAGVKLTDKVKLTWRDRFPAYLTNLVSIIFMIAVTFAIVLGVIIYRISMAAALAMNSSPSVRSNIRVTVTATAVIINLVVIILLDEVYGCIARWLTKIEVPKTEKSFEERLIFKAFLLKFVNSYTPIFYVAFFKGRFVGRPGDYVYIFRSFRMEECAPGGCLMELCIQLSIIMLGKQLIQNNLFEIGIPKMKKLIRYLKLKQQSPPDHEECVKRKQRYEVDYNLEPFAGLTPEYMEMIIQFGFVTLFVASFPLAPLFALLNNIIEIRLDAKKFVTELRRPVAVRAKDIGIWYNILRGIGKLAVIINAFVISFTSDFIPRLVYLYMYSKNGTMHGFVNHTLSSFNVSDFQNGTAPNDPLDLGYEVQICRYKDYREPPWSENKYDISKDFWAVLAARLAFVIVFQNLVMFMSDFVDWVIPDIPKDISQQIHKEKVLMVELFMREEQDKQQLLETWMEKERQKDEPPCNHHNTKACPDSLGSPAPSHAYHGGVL
# ANO1 del476-501/L548A: Anoctamin-1 (ANO1, Homo sapiens, UniProt Q5XXA6, del476-501/L548A)
target,assay,conditions,IC50 [µM]
ANO1 del476-501/R541K,inhibitor,R515K mutant at -60 mV,18.9
"Anoctamin-1 (ANO1, Homo sapiens, UniProt Q5XXA6, del476-501/E650A)",,membrane voltage 100 mV,21.5
ANO1 del476-501/L548A,,membrane voltage 40 mV,31.6
ANO1 del476-501/R541K,inhibitor,mutant R515K,29.4
"Anoctamin-1 (ANO1, Homo sapiens, UniProt Q5XXA6, del476-501/R541I)",inhibitor,R515I mutant at 60 mV,71.8
"Anoctamin-1 (ANO1, Homo sapiens, UniProt Q5XXA6, del476-501/E649D)",inhibitor,E623D mutant at -40 mV,41.9
"Anoctamin-1 (ANO1, Homo sapiens, UniProt Q5XXA6, del476-501/F623A)",,membrane voltage 20 mV,24.3
ANO1 del476-501/L548A,,membrane voltage 100 mV,36.6
"Anoctamin-1 (ANO1, Homo sapiens, UniProt Q5XXA6, del476-501/F803A)",,membrane voltage -60 mV,52.3
"Anoctamin-1 (ANO1, Homo sapiens, UniProt Q5XXA6, D383A/del476-501)",,membrane voltage 60 mV,26.2
"Anoctamin-1 (ANO1, Homo sapiens, UniProt Q5XXA6, del476-501/F807A)",,membrane voltage -40 mV,19.1
"Anoctamin-1 (ANO1, Homo sapiens, UniProt Q5XXA6, del476-501/F627A)",,membrane voltage 40 mV,20.3
"Anoctamin-1 (ANO1, Homo sapiens, UniProt Q5XXA6, del476-501)",,"membrane voltage 40 mV, together with: 300 nM Ca2+",19.6
"Anoctamin-1 (ANO1, Homo sapiens, UniProt Q5XXA6, del476-501/F646A)",,membrane voltage -20 mV,19.3
"Anoctamin-1 (ANO1, Homo sapiens, UniProt Q5XXA6, del476-501/K629I)",inhibitor,20 mV holding voltage,319
ANO1 del476-501/L548A,,membrane voltage -40 mV,37

# A few entries again (sample 2):
Structure (SMILES),viability
CC(C)OC(=O)C(C)(C)Oc1ccc(C(=O)c2ccc(Cl)cc2)cc1,75.2%
Cn1cnc([N+](=O)[O-])c1Sc1ncnc2nc[nH]c12,60.2%
CCCNC(=O)NS(=O)(=O)c1ccc(Cl)cc1,96.5%
NC1C(O)O[C@H](CO)C(O[C@@H]2O[C@H](CO)C(O[C@@H]3O[C@H](CO)[C@@H](O)[C@H](O)[C@H]3N)[C@H](O)C2N)C1O (some centres unmarked),122%
CCCc1nc(C(C)(C)O)c(C(=O)OCc2oc(=O)oc2C)n1Cc1ccc(-c2ccccc2-c2nnn[nH]2)cc1,96.5%
CC(=O)O[C@]1(C(C)=O)CC[C@H]2[C@@H]3C=C(C)C4=CC(=O)CC[C@]4(C)[C@H]3CC[C@@]21C,42.3%
CCOC(=O)[C@H](CCc1ccccc1)N[C@@H](C)C(=O)N(CC(=O)O)C1Cc2ccccc2C1,94.7%
CC(C)(C)NC(=O)[C@H]1CC[C@H]2[C@@H]3CC[C@H]4NC(=O)C=C[C@]4(C)[C@H]3CC[C@]12C,49%
CC(C)(CO)[C@@H](O)C(=O)NCCCO,102%
Nc1ncnc2c1ncn2[C@@H]1O[C@H](COP(=O)(O)O)[C@@H](O)[C@H]1O,113%
